Measured values pooled from the literature.
Parts stem from different laboratories: compare values within a part only. “And” joins repeats or separate records; there may be more than shown.
UniProt P17948, sequence (whole entry, looked up): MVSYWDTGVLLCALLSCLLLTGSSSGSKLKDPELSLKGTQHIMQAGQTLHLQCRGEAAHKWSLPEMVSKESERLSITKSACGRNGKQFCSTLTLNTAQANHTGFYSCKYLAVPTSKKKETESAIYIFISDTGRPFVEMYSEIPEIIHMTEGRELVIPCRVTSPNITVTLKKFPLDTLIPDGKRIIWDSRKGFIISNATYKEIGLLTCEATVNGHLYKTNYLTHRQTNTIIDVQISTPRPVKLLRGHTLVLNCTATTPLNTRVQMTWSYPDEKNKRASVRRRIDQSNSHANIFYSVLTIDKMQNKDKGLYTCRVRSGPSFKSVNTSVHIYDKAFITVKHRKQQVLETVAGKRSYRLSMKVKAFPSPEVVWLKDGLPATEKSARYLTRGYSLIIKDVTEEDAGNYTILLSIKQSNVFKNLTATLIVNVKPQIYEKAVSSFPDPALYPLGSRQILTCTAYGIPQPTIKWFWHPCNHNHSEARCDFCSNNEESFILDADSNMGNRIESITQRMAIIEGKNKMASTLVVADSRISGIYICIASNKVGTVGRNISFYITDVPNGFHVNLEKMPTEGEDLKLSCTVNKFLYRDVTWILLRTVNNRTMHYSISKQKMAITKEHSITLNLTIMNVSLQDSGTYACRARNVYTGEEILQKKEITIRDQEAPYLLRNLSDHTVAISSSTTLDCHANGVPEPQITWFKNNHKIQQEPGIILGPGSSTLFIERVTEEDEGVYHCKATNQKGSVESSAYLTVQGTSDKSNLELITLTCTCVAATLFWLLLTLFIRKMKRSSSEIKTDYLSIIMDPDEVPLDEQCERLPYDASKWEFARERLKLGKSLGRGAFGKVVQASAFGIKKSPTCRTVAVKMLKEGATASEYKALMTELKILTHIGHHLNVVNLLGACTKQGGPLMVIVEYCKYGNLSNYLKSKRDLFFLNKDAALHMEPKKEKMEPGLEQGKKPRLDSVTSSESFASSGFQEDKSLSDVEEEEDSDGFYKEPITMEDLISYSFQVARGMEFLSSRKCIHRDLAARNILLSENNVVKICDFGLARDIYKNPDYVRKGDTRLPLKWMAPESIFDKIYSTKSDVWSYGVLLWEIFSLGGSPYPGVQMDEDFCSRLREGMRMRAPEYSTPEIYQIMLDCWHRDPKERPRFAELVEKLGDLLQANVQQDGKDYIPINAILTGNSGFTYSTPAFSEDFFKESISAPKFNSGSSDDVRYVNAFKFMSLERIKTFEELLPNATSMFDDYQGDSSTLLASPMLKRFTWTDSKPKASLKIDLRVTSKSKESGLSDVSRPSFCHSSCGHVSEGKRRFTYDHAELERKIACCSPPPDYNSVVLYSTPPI
UniProt Q13557, sequence (whole entry, looked up): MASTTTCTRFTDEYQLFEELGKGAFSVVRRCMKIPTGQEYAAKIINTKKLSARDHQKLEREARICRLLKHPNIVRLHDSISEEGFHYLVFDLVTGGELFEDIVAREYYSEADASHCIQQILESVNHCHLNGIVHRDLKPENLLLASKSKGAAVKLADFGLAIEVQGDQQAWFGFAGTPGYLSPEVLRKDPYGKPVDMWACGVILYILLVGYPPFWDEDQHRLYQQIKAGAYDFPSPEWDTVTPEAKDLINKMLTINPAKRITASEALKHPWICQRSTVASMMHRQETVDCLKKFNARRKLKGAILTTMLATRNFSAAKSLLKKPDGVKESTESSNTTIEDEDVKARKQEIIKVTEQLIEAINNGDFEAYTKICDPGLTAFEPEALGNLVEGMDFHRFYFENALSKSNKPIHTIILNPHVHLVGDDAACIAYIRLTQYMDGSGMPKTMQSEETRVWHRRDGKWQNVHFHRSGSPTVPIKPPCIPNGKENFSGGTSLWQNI
UniProt O96017, sequence (whole entry, looked up): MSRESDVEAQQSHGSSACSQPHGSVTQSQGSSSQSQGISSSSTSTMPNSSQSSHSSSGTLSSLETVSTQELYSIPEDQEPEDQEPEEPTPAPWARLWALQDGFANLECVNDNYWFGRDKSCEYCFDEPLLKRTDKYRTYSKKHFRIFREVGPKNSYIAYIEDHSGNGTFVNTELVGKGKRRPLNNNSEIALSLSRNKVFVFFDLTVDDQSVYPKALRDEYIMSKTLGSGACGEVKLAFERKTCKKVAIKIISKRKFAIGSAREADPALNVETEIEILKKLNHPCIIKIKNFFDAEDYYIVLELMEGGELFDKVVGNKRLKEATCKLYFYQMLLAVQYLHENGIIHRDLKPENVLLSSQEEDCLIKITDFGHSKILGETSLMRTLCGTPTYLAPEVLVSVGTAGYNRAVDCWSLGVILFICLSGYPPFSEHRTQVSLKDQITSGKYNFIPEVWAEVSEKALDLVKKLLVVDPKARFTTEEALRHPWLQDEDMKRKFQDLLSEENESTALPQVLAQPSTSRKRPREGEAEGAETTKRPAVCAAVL
UniProt Q15831, sequence (whole entry, looked up): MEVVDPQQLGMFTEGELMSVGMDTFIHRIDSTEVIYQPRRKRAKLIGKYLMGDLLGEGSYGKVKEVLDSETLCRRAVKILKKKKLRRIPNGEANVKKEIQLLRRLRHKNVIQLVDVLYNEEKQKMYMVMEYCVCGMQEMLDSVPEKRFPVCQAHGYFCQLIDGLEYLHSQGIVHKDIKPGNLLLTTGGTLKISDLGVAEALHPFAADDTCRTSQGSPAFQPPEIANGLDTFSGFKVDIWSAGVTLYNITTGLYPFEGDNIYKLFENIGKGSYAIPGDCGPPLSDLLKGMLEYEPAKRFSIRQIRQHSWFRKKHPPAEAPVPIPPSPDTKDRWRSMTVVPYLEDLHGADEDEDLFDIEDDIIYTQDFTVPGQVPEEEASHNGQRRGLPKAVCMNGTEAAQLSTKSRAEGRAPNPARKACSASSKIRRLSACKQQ
UniProt P35626, sequence (whole entry, looked up): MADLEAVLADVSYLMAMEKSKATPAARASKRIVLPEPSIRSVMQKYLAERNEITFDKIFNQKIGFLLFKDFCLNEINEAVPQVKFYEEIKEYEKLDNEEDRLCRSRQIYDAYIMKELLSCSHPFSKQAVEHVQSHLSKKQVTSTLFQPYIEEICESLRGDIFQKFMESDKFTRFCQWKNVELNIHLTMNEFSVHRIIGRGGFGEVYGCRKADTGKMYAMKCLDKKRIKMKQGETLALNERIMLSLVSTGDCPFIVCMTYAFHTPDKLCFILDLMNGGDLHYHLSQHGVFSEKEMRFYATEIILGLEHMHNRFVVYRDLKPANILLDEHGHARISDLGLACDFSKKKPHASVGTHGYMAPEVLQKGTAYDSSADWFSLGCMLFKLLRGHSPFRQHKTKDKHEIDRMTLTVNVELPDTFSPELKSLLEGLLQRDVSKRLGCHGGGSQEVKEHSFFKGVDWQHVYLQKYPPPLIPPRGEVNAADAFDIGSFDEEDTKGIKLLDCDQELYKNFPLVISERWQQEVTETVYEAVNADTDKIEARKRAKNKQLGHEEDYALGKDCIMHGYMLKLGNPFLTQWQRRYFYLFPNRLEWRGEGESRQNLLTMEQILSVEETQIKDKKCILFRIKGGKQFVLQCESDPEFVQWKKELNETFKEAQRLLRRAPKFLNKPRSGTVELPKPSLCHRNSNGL
UniProt Q14012, sequence (whole entry, looked up): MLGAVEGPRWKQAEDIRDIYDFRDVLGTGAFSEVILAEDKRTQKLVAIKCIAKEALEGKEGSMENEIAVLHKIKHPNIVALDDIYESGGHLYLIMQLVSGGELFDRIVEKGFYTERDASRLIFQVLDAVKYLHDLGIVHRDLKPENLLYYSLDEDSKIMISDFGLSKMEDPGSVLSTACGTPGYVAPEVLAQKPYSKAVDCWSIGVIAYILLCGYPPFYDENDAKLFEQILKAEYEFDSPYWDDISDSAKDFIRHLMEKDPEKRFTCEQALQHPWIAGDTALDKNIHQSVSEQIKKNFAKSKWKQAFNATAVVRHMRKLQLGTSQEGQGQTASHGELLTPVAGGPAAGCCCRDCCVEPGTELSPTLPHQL
UniProt P07948, sequence (whole entry, looked up): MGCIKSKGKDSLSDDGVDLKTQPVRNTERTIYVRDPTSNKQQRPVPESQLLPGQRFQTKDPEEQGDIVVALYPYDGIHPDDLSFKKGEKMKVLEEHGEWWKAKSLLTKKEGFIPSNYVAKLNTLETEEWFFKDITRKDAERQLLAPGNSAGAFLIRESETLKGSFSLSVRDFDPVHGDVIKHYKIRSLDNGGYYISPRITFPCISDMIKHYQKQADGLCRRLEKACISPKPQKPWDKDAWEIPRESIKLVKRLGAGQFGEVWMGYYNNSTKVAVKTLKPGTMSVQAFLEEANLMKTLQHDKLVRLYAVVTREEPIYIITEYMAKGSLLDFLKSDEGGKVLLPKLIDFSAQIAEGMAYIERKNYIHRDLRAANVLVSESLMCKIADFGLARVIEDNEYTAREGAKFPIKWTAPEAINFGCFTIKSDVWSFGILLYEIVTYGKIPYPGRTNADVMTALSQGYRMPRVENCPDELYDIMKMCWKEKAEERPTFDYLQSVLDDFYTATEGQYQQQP
UniProt Q9UIK4, sequence (whole entry, looked up): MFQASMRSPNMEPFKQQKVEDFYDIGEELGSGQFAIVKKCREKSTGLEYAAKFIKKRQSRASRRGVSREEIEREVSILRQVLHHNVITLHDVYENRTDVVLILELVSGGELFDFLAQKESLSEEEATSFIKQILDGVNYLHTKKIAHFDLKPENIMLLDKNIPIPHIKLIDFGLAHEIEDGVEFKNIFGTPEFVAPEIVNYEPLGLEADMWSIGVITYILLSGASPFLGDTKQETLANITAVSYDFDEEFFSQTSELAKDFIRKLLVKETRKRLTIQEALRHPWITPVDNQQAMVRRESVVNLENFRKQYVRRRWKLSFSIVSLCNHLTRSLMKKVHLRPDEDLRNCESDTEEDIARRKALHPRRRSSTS

Series 1
Target: Histone acetyltransferase KAT6A, both winged helices, GST fusion (KAT6A, Homo sapiens, UniProt Q92794, residues 1-181)
Technique: protein binding microarray
Form: double-stranded DNA, one strand shown
Sample: in vitro
Concentration: not given
Notes: 8-mer, flanks averaged, mean of 2 arrays, mostly near background
Relative to: not given
Reading: higher = stronger binding
Quantity: E-score
Target sequence (chain): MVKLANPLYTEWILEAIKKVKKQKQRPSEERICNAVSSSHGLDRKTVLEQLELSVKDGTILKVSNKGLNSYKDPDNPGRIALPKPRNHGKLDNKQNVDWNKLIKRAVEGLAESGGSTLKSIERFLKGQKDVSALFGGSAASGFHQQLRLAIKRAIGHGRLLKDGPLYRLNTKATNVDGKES
CTGTCTTC: -0.114
CAGACCTG: 0.00624
CGGACAGC: 0.143
AGGTGTCA: -0.0685
AGGCTCTC: -0.0151
GCATCGCA: 0.0265
GTGATGAA: -0.133
GCTAACAA: 0.109

Series 2
SMILES: Nc1cnc(N2CCc3cc(S(=O)(=O)Nc4c(F)cc(Cl)cc4F)cc(N4CCCC4=O)c32)nc1
Technique: competition with immobilised ligand
Concentration: 1 µM
Quantity: remaining binding
Receptor-type tyrosine-protein kinase FLT3 (FLT3, Homo sapiens, UniProt P36888); cell-free assay: 81%
Rho-associated protein kinase 2 (ROCK2, Homo sapiens, UniProt O75116); cell-free assay: 100%
Tyrosine-protein kinase JAK3, JH1 (JAK3, Homo sapiens, UniProt P52333); cell-free assay: 100%
Wee1-like protein kinase 2 (WEE2, Homo sapiens, UniProt P0C1S8); cell-free assay: 93%
Proto-oncogene tyrosine-protein kinase receptor Ret (RET, Homo sapiens, UniProt P07949, M918T); cell-free assay: 100%
Calcium/calmodulin-dependent protein kinase type IV (CAMK4, Homo sapiens, UniProt Q16566); cell-free assay: 96%
Vascular endothelial growth factor receptor 1 (FLT1, Homo sapiens, UniProt P17948); cell-free assay: 93%
Aurora kinase B (AURKB, Homo sapiens, UniProt Q96GD4); cell-free assay: 98%
Platelet-derived growth factor receptor beta (PDGFRB, Homo sapiens, UniProt P09619); cell-free assay: 100%
Calcium/calmodulin-dependent protein kinase type 1 (CAMK1, Homo sapiens, UniProt Q14012); cell-free assay: 88%
Serine/threonine-protein kinase WNK4 (WNK4, Homo sapiens, UniProt Q96J92); cell-free assay: 100%
Tyrosine-protein kinase ABL2 (ABL2, Homo sapiens, UniProt P42684); cell-free assay: 95%
Serine/threonine-protein kinase 32A (STK32A, Homo sapiens, UniProt Q8WU08); cell-free assay: 80%
Interferon-induced, double-stranded RNA-activated protein kinase (EIF2AK2, Homo sapiens, UniProt P19525); binding: 41%
Tyrosine-protein kinase Tec (TEC, Homo sapiens, UniProt P42680); cell-free assay: 99%

Series 3
SMILES: O=C(O)/C=C/c1cc(Br)c(Br)c(Br)c1Br
Observed: enzyme activity
Mode: inhibitor
Concentration: 0.5 µM
Relative to: control
Quantity: remaining activity
Mitogen-activated protein kinase kinase kinase 3 (MAP3K3, Homo sapiens, UniProt Q99759): 105%
Tyrosine-protein kinase Lyn, isoform B (LYN, Homo sapiens, UniProt P07948): 102%
Protein kinase C beta type, isoform beta-I (PRKCB, Homo sapiens, UniProt P05771): 95.5%
Death-associated protein kinase 1 (DAPK1, Homo sapiens, UniProt P53355): 73.7%
Protein kinase C alpha type (PRKCA, Homo sapiens, UniProt P17252): 79%
Serine/threonine-protein kinase Chk2 (CHEK2, Homo sapiens, UniProt O96017): 77.5%
cAMP-dependent protein kinase catalytic subunit alpha (PRKACA, Homo sapiens, UniProt P17612): 98.4%
Calcium/calmodulin-dependent protein kinase type II subunit delta (CAMK2D, Homo sapiens, UniProt Q13557): 77.8%
Inhibitor of nuclear factor kappa-B kinase subunit epsilon (IKBKE, Homo sapiens, UniProt Q14164): 96.8%
Mitogen-activated protein kinase 9 (MAPK9, Homo sapiens, UniProt P45984): 96.4%
TGF-beta receptor type-1 (TGFBR1, Homo sapiens, UniProt P36897): 90.8%
Cyclin-dependent kinase 4, with cyclin D1 (CDK4, Homo sapiens, UniProt P11802): 89.3%
Serine/threonine-protein kinase 10 (STK10, Homo sapiens, UniProt O94804): 85.8%
Calcium/calmodulin-dependent protein kinase kinase 2 (CAMKK2, Homo sapiens, UniProt Q96RR4): 79.6%
Cyclin-dependent kinase 5, with p25 (CDK5, Homo sapiens, UniProt Q00535): 84.1%
Death-associated protein kinase 2 (DAPK2, Homo sapiens, UniProt Q9UIK4): 104%
G protein-coupled receptor kinase 3 (GRK3, Homo sapiens, UniProt P35626): 94.3%
cGMP-dependent protein kinase 1, isoform beta (PRKG1, Homo sapiens, UniProt Q13976): 89%
Serine/threonine-protein kinase STK11 (STK11, Homo sapiens, UniProt Q15831): 42.8%
Serine/threonine-protein kinase OSR1 (OXSR1, Homo sapiens, UniProt O95747): 93.5%
Inhibitor of nuclear factor kappa-B kinase subunit beta (IKBKB, Homo sapiens, UniProt O14920): 95.7%
STE20/SPS1-related proline-alanine-rich protein kinase (STK39, Homo sapiens, UniProt Q9UEW8): 97.9%
TGF-beta receptor type-2 (TGFBR2, Homo sapiens, UniProt P37173): 85.7%

Series 4
SMILES: c1ccc(Oc2ccc(Nc3c4c(nc5ccccc35)CCC4)cc2)cc1
Organism: Leishmania donovani
Strain: DD8
Sample: promastigotes
Quantity: promastigote number
33.33 µM, 48 h: 1590
0.16 µM, 72 h: 9.76e+06
0.16 µM, 48 h: 4.37e+06
6.66 µM, 48 h: 1470

Other studies, line by line
Ic1ccc(Nc2nc(NCCN3CCOCC3)nc(N3CCOCC3)n2)cc1
remaining activity (lysosomal β-galactosidase (human, wild type); healthy dermal fibroblasts; 1 µM, unit not given; relative to: DMSO): 1.12 and 1.11 and 1.22 and 1.19

COC(=O)c1cc(Cl)ccc1N(C)C(=O)c1ccn2ncc(-c3ccc(C(N)=O)cc3)c2c1
oocyst shedding (Cryptosporidium parvum; qPCR; IFN-γ knockout mouse, feces; dose not given): 3.45 log oocysts/g feces

Excerpt of the above (series 1):
AGGCTCTC: -0.0151
GCATCGCA: 0.0265
GTGATGAA: -0.133
